Measured values gathered from unrelated publications.
Protocols differ between the studies behind these lines. “And” joins repeats or separate records; there may be more than shown. Numbers after ± are the reported error. ≈ marks a conversion by molar mass, not a printed value.

COc1ccccc1-c1n[nH]c2nc(N[C@H]3CC[C@H](NS(=O)(=O)CC(C)C)CC3)ncc12 — relative abundance (bead binding, competition bead pull-down, refers to: LINJ.30.2930; Leishmania donovani extract; 10 µM; relative to: vehicle): 0.48
COc1ccc(CC2[NH2+]CCc3cc(OC)c(OC)cc32)cc1OC.[Cl][Fe-]([Cl])([Cl])[Cl] (stereo not shown) — DPPH scavenging (1.0 mg/mL, 30 min, 25 °C): 33.9%
CCCCCC1=C(NCC)C(=O)C(C/C=C(\C)CCC=C(C)C)=C(O)C1=O — normalised enrichment score (RNA-seq, refers to: Irf9 regulon; mouse, striatum; dose not given; direction not given): 2.42
CCCC[C@@H]1NC(=O)[C@H](Cc2ccc(O)cc2)NC(=O)[C@@H]2CCCN2C(=O)[C@H](CC(=O)O)NC(=O)[C@H](C)NC(=O)[C@H](Cc2ccccc2)NC(=O)[C@@H]2CSCCC(=O)N3CN(CN(C3)C(=O)CCSC[C@@H](C(=O)N[C@@H](C)C(N)=O)NC1=O)C(=O)CCSC[C@H](NC(C)=O)C(=O)N[C@@H](CC(C)(C)C)C(=O)N1CCC[C@H]1C(=O)N[C@@H](CCC(=O)O)C(=O)N[C@H](CCCCNC(=O)CCc1cn(CCOCCOCCOCCN(CCOCCOCCOCCC(=O)N[C@H]3CSCCC(=O)N4CN5CN(C4)C(=O)CCSC[C@H](NC(=O)[C@@H](CC(=O)O)NC(=O)[C@H](Cc4cccc6ccccc46)NC(=O)[C@@H]4CCCN4C3=O)C(=O)N[C@@H](CCSC)C(=O)N[C@@H](CCCCNC(=N)N)C(=O)N[C@@H](CC(=O)O)C(=O)N[C@@H](Cc3c[nH]c4ccccc34)C(=O)N[C@@H](CO)C(=O)N[C@@H]([C@@H](C)O)C(=O)N3CCC[C@H]3C(=O)N3C[C@H](O)C[C@H]3C(=O)N[C@@H](Cc3c[nH]c4ccccc34)C(=O)N[C@H](C(N)=O)CSCCC5=O)CCOCCOCCOCCn3cc(CCC(=O)NCCCC[C@H]4NC(=O)[C@H](CCC(=O)O)NC(=O)[C@@H]5CCCN5C(=O)[C@H](CC(C)(C)C)NC(=O)[C@@H](NC(C)=O)CSCCC(=O)N5CN6CN(C5)C(=O)CCSC[C@H](NC(=O)[C@H](Cc5ccc(O)cc5)NC(=O)[C@@H]5CCCN5C4=O)C(=O)N[C@@H](Cc4ccccc4)C(=O)N[C@@H](C)C(=O)N[C@@H](CC(=O)O)C(=O)N4CCC[C@H]4C(=O)N[C@@H](Cc4ccc(O)cc4)C(=O)N[C@@H](CCCC)C(=O)N[C@H](C(=O)N[C@@H](C)C(N)=O)CSCCC6=O)nn3)nn1)C(=O)N1CCC[C@H]1C(=O)N[C@@H](Cc1ccc(O)cc1)C(=O)N2 — fold change (NanoString, refers to: Tab1 mRNA; mouse bearing MC38-Nectin-4 tumour, circulating white blood cells; 5 mg/kg, 24 h, added: anti-CD137 0.2 mg/kg; relative to: vehicle): 1.52
Cc1cc(O)cc(C)c1C[C@H](N)C(=O)N[C@H](CCCNC(=N)N)C(=O)N[C@@H](Cc1ccccc1)C(=O)N[C@@H](CCCCN)C(=O)N[C@H]1CC[C@H](NC(=O)[C@H](Cc2ccccc2)NC(=O)[C@H](CC2CCCCC2)NC[C@@H]2Cc3ccccc3CN2C(=O)[C@@H](N)Cc2ccc(O)cc2)CC1 — IC50 (agonist; guinea pig ileum): 0.056 ± 0.0182 µM
CC(C)C[C@H](NC(=O)[C@H](CCC(=O)O)NC(=O)[C@H](Cc1ccccc1)NC(=O)[C@@H]1CCCN1C(=O)CNC(=O)OCc1ccccc1)C(=O)N[C@@H](CCC(=O)O)C(=O)N[C@@H](CCCNC(=N)N)C(=O)N[C@@H](CCCNC(=N)N)C(=O)N[C@@H](Cc1ccccc1)C(=O)N[C@@H](CCCCN)C(=O)N[C@@H](CCC(N)=O)C(=O)N[C@@H](CCC(N)=O)C(=O)O — tumour blood flow (laser speckle imaging; mouse orthotopic tumour; dose not given): 297 perfusion units
COc1ccccc1-c1n[nH]c2nc(NC3CCN(C(=O)Cc4ccc(F)cc4F)CC3)ncc12 — relative abundance (bead binding, competition bead pull-down, refers to: LINJ.30.0990; Leishmania donovani extract; 10 µM; relative to: vehicle): 0.99
Cc1sc2c(c1C)C(c1ccc(-c3cccc(NC(=O)c4cnn5cccnc45)c3)cc1)=N[C@@H](CC(N)=O)c1nnc(C)n1-2 — tumour growth inhibition (mouse, MV4-11 subcutaneous xenograft; 5 mg/kg daily, 14 days): 114%
CC(C)C[C@H](NC(=O)[C@H](Cc1ccccc1)NC(=O)CNC(=O)CNC(=O)[C@@H](N)Cc1ccc(O)cc1)C(=O)O — IC50 ([3H]deltorphin II uptake, inhibitor; rabbit, cells; 15 min, NaCl-containing medium): 8.8 ± 2.2 µM
CCN(Cc1ccccc1)C(=O)CCc1nc(CN2CCN(C(=O)Cc3ccc(OC)c(OC)c3)CC2)no1 — beam crossing time (beam walking test; mouse, CCI neuropathic pain model; 1 mg/kg): 8.09 ± 0.055 s
COc1ccc(S(=O)(=O)O)cc1N=Nc1c(S(=O)(=O)O)cc2cc(NCc3nc(CNc4cc(C)c(N=Nc5cc(S(=O)(=O)O)cc6cc(S(=O)(=O)O)cc(O)c56)cc4OC)nc(Nc4ccccc4)n3)ccc2c1O — IC50 ratio (virus neutralisation; pseudovirus SF162-W32A; relative to: SF162 wild type): 0.79 ± 0.29
CC(C)NCCCn1c(Sc2cc3c(cc2I)OCO3)nc2c(N)ncnc21 — dose needed for tumour concentration (human patients; dose not given, target 5 µM intratumoral): > 180 mg/m²
Cc1cc(Br)c(NC2=NCCN2)c2ccccc12 — IC50 (MAC formation, inhibitor, refers to: MAC deposition; human whole blood 50%; added: zymosan): 35 ± 12 µM
Cc1ccc(C2=CC(C)(C)Oc3ccc(-c4ccc(-c5ccc(C(=O)O)cc5)[nH]4)cc32)cc1 — cauda epididymal sperm count (CD1 mouse, male; 10 mg/kg, 4 week after end of treatment, dosed for 4 weeks): 19.5 and 35.5 and 55 and 37.5 and 30
O=C(O)c1ccc(-c2nc(-c3ccccc3Cl)c3sccn23)cc1 — reticulated platelets (C57BL/6 mice, 5-fluorouracil treated; dose not given, day 17): 12.4% and 17.1% and 12.2% and 17.4%
COC(=O)C1CN1S(=O)(=O)c1ccc(C)cc1 (stereo not shown) — tumour growth inhibition (mouse Lewis lung carcinoma; intraperitoneal, 100 mg/kg, day 15): 49%
Cc1cc(O)cc(C)c1C[C@H](N)C(=O)N[C@H](CCCNC(=N)N)C(=O)N[C@@H](Cc1ccccc1)C(=O)N[C@@H](CCCCN)C(=O)NCCCCCCNC(=O)[C@H](Cc1ccccc1)NC(=O)[C@H](CC1CCCCC1)NC[C@@H]1Cc2ccccc2CN1C(=O)[C@@H](N)Cc1ccc(O)cc1 — IC50 (agonist; guinea pig ileum): 0.261 ± 0.033 µM
CC[C@H](C)[C@H](NC(=O)[C@H](CCCNC(=N)N)NC(=O)[C@H](CO)NC(=O)[C@H](Cc1ccc(O)cc1)NC(=O)[C@@H](NC(=O)[C@@H](NC(=O)[C@H](C)NC(=O)CNC(=O)[C@H](CCCCN)NC(=O)[C@H](CCCCN)NC(=O)CCNC(=O)CCCCCNC(=O)[C@H](CCCNC(=N)N)NC(=O)CCCCCNC(=O)[C@H](CCCNC(=N)N)NC(=O)[C@H](CCCNC(=N)N)NC(=O)CCCCCNC(=O)[C@H](CCCNC(=N)N)NC(=O)[C@H](CCCNC(=N)N)NC(=O)CCCCCNC(=O)[C@H](CCCNC(=N)N)NC(=O)[C@H](CCCNC(=N)N)NC(=O)CCCCCNC(=O)[C@@H](N)CCCNC(=N)N)C(C)C)[C@@H](C)O)C(=O)N[C@@H](CO)C(=O)NCC(=O)N[C@@H](CCC(N)=O)C(=O)N[C@@H](Cc1ccc(O)cc1)C(=O)N[C@@H](CCCCN)C(=O)O — MIC (broth microdilution; ATCC 33592 resistant strain, Mueller-Hinton broth): 24 µM (≈ 85.7 µg/mL)
NC(=NN=Cc1cccs1)[S][Ru+]([Cl])([P](c1ccccc1)(c1ccccc1)c1ccccc1)[P](c1ccccc1)(c1ccccc1)c1ccccc1.[Cl-] — IC50 (nitric oxide radical scavenging, cell-free): 27 µM

Excerpt of the above:
Cc1ccc(C2=CC(C)(C)Oc3ccc(-c4ccc(-c5ccc(C(=O)O)cc5)[nH]4)cc32)cc1 — cauda epididymal sperm count (CD1 mouse, male; 10 mg/kg, 4 week after end of treatment, dosed for 4 weeks): 19.5 and 35.5 and 55 and 37.5 and 30
